Results from different studies.
Parts stem from different laboratories: compare values within a part only. Values joined by “and” are separate records of one study, mostly repeats; a detail may differ.
Chain of UniProt Q14164 (whole entry, looked up): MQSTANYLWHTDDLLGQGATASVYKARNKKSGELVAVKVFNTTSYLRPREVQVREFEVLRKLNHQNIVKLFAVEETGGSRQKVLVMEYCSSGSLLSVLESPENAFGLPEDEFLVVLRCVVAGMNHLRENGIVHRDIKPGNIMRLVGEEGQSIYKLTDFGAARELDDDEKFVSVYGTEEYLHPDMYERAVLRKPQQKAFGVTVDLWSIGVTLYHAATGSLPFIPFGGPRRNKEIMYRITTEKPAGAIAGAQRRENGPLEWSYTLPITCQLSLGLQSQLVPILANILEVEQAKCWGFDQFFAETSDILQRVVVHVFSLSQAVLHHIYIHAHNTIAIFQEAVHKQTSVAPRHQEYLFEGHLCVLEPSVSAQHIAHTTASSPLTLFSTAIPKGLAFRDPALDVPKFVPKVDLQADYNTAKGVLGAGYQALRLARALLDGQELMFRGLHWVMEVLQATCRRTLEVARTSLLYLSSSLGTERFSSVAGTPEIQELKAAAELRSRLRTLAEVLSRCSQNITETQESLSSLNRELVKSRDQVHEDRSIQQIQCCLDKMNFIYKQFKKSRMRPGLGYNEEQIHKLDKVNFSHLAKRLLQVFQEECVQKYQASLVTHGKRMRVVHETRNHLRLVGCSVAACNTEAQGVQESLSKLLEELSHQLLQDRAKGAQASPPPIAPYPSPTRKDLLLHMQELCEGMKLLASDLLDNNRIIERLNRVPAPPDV
Chain of UniProt P19784 (whole entry, looked up): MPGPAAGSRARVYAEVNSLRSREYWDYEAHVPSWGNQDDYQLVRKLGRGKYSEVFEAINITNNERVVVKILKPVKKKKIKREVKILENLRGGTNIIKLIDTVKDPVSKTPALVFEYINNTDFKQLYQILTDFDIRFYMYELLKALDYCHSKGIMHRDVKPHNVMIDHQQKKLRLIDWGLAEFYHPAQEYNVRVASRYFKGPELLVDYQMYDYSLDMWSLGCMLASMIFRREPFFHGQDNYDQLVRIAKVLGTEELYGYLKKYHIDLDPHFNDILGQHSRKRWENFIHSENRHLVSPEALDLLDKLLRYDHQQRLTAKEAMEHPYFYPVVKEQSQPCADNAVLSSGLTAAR
Chain of UniProt P51957 (whole entry, looked up): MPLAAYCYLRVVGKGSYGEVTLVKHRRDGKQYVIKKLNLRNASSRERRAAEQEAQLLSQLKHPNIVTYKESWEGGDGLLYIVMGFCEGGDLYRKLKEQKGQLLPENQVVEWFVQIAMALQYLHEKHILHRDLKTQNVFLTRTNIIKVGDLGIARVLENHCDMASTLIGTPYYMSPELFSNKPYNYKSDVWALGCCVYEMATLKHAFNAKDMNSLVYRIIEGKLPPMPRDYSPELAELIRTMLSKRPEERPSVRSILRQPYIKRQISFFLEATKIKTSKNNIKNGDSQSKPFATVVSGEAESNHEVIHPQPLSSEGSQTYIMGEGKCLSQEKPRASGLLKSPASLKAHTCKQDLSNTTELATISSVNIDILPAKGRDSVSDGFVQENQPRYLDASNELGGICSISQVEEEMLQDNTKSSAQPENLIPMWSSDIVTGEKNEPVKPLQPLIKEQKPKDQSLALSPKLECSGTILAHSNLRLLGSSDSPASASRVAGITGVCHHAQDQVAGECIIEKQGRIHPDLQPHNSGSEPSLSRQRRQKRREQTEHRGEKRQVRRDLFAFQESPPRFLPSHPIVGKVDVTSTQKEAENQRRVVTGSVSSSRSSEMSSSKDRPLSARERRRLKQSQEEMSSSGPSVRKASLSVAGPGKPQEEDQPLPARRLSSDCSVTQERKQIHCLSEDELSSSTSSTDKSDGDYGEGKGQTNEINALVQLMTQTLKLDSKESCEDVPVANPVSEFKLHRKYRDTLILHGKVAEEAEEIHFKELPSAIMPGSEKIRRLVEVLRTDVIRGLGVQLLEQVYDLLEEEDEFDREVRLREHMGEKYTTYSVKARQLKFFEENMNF
Chain of UniProt P11802 (whole entry, looked up): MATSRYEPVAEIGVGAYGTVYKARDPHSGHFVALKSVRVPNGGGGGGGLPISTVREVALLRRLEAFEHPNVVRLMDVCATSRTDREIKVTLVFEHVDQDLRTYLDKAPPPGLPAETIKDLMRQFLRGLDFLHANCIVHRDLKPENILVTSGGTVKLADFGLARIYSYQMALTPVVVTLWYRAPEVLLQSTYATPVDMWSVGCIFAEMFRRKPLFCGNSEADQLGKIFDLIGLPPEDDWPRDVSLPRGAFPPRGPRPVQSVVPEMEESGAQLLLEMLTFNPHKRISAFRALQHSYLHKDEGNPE
Chain of UniProt Q13557 (whole entry, looked up): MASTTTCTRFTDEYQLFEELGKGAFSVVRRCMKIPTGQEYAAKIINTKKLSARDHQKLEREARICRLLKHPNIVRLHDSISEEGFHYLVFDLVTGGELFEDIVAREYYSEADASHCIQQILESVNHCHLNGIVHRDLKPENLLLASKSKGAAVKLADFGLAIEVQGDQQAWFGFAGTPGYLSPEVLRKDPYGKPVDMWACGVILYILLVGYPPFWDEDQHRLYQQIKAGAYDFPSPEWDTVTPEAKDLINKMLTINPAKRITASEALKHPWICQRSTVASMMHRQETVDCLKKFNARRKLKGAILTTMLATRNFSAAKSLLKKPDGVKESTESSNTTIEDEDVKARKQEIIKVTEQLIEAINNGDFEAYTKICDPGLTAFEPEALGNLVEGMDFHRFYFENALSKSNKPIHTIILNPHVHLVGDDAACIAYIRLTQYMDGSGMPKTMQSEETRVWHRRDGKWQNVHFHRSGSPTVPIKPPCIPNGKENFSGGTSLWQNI
Chain of UniProt Q96RR4 (whole entry, looked up): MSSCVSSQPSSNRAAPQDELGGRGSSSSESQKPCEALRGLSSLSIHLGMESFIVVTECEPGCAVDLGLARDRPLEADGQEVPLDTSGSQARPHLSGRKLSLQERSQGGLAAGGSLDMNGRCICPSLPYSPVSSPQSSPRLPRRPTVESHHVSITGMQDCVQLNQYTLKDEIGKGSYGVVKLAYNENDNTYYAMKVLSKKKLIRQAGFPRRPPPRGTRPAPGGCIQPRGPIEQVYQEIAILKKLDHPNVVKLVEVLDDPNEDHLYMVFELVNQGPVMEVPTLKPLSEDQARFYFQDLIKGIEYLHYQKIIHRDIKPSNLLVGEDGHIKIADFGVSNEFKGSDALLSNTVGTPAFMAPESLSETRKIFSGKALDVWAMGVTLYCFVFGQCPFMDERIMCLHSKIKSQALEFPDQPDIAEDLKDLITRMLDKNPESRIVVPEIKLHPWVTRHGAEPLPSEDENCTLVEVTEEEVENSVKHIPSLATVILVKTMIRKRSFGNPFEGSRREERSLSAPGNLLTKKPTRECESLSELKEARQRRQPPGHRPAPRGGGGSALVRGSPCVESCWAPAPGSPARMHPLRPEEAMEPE
Chain of UniProt Q52WX2 (whole entry, looked up): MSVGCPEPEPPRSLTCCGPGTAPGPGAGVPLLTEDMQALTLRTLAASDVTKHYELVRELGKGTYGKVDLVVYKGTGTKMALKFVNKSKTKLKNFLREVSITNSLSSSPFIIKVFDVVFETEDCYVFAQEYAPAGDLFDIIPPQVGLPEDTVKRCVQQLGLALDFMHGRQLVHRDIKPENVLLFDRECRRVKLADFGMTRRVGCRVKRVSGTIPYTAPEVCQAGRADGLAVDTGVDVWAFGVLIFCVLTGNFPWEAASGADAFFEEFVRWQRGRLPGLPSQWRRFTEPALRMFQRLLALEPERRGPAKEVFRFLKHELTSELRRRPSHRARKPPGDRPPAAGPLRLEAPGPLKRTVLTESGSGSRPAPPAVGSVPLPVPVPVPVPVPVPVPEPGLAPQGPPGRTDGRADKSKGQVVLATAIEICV
Chain of UniProt Q8TDX7 (whole entry, looked up): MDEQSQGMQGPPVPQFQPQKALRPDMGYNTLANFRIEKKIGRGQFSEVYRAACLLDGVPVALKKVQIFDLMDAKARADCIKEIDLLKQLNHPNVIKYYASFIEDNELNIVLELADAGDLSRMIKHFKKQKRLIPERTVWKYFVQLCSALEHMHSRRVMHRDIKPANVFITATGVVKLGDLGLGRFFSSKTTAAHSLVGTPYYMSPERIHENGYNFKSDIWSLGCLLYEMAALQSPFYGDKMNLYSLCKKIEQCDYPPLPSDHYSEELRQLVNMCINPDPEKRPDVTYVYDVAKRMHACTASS
Chain of UniProt Q8IW41 (whole entry, looked up): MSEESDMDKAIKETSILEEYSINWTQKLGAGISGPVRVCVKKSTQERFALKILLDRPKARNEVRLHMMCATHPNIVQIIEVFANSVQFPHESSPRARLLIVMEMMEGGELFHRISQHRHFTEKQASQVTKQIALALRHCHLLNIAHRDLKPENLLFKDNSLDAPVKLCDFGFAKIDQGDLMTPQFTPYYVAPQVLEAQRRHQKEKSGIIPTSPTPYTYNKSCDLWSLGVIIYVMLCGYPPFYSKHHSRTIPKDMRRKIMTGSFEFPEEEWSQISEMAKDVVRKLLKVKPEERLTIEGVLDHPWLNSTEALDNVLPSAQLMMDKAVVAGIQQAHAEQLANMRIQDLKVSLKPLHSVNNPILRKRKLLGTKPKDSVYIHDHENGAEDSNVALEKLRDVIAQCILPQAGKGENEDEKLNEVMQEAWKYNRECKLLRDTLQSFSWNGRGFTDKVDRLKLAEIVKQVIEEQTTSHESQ

Sample 1
Cell line: mouse MPNST tumor cells
Technique: high-content nuclear imaging
Measured: cell number
Tested at: 10 µM
Time: 12 h
Setting: mean of 2 replicates
Baseline: plate mean
Reading: higher = more cells
| SMILES | nuclei count |
| --- | --- |
| CCc1c2c(nc3ccc(O)cc13)-c1cc3c(c(=O)n1C2)COC(=O)[C@]3(O)CC | -2.02 z-score and 1.07 z-score |
| O=C(O)c1cccnc1 | 0.79 z-score |
| O=C1NCCc2[nH]c(-c3ccncc3)cc21 | -4.16 z-score |
| CC(CN1c2ccccc2Sc2ccccc21)N(C)C (centres unmarked) | 2.27 z-score |
| Cc1ccccc1C(=O)c1ccc(Nc2ccc(Br)cc2N)cc1Cl | 1.07 z-score |
| Cc1cc(C(=O)NNCc2ccccc2)no1 | 0.29 z-score |
| CC/C(=C(\c1ccccc1)c1ccc(OCCN(C)C)cc1)c1ccccc1 | -7.33 z-score and -5.57 z-score |
| Fc1ccc(CNc2ncnc3ccc(F)cc23)cc1 | 0.383 z-score |
| CCOC(=O)C1Cc2ccccc2CN1C(=O)c1ccc(SC)s1 (centres unmarked) | 1.44 z-score |

Sample 2
Target: Casein kinase I isoform gamma-1 (CSNK1G1, Homo sapiens, UniProt Q9HCP0)
Chain of UniProt Q9HCP0 (whole entry, looked up): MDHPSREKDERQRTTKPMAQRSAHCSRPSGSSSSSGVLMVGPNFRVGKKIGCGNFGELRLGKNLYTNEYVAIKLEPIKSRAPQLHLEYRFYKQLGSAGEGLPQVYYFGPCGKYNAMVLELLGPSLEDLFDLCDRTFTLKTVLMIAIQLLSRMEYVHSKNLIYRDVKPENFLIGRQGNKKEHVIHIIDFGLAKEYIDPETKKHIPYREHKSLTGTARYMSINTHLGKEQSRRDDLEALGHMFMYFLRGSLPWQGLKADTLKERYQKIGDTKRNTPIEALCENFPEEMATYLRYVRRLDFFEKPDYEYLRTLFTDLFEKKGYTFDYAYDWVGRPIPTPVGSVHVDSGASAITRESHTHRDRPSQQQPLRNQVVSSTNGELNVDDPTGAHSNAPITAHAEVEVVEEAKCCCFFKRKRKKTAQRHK
Read-out: enzyme activity
Action: inhibitor
Tested at: 0.5 µM
Baseline: control
| Structure (SMILES) | remaining activity |
| --- | --- |
| N#Cc1cnc2cnc(NCc3cccnc3)cc2c1Nc1ccc(F)c(Cl)c1 | 87% |
| CN(C)S(=O)(=O)c1ccc2c(c1)/C(=C/c1cc3c([nH]1)CCCC3)C(=O)N2 | 101% |
| CCCNC(=O)Nc1ccc(Oc2ncnc3cc(OC)c(OC)cc23)cc1Cl | 97.1% |
| Cc1cc(Nc2cc(N3CCN(C)CC3)nc(Sc3ccc(NC(=O)C4CC4)cc3)n2)[nH]n1 | 99.1% |
| Oc1cccc(-c2nc(N3CCOCC3)c3oc4ncccc4c3n2)c1 | 89.4% |
| COc1ccc(COc2ccc(Cc3cnc(N)nc3N)cc2OC)cc1 | 92.7% |
| O=C1Nc2ccc(Br)cc2/C1=C/c1cc2c([nH]1)CCCC2 | 102% |
| c1ccc(-c2n[nH]c3c2oc2ccccc23)cc1 | 91.6% |
| O=C1Cc2c([nH]c3ccc(Br)cc23)-c2ccccc2N1 | 102% |
| O=C1Nc2ccccc2/C1=C\c1c(Cl)[nH]c2ccccc12 | 99.3% |
| c1ccc2c(-c3ccncc3)c[nH]c2c1 | 79.2% |
| COc1ccc2c(c1)c(C1=C(c3c[nH]c4ccccc34)C(=O)NC1=O)cn2CCCN(C)C | 84.1% |
| O=C(c1cc2cc(O)ccc2[nH]1)c1cc2cc(O)ccc2[nH]1 | 93.1% |
| Cc1ccc(S(=O)(=O)/C=C/C#N)cc1 | 101% |
| O=Nc1c(-c2c(O)[nH]c3cc(Br)ccc23)[nH]c2ccccc12 | 87.6% |
| COc1cccc(-c2cc(=O)c3ccccc3o2)c1N | 83.5% |
| O=C1NC(=O)c2c1c1c3ccccc3[nH]c1c1[nH]c3cc(Br)ccc3c21 | 96.2% |
| CCCCc1c(-c2ccc(OC)cc2)[nH]c2nccnc12 | 93.3% |
| O=c1cc(N2CCOCC2)oc2c(-c3ccccc3)cccc12 | 104% |
| CN1CCN(c2ccc3nc(-c4c(N)c5c(F)cccc5[nH]c4=O)[nH]c3c2)CC1 | 96.4% |
| O=C1NC(=O)c2c1c1c3ccccc3[nH]c1n1cncc21 | 68.4% |

Sample 3
Compound: N#CC1(c2ccccn2)CCN(Cc2cc(C(=O)N3CCCC3)c(=O)n3ccccc23)CC1
Technique: competition with immobilised ligand
Tested at: 1 µM
| target | assay | remaining binding [%] |
| --- | --- | --- |
| FLT3 (Homo sapiens, UniProt P36888, D835V/ITD) | cell-free assay | 90 |
| IKBKE (Homo sapiens, UniProt Q14164) | cell-free assay | 94 |
| SBK1 (Homo sapiens, UniProt Q52WX2) | cell-free assay | 89 |
| LIM domain kinase 2 (LIMK2, Homo sapiens, UniProt P53671) | cell-free assay | 82 |
| FLT3 (Homo sapiens, UniProt P36888, K663Q) | binding | 30 |
| CDK2 (Homo sapiens, UniProt P24941) | cell-free assay | 86 |
| CSNK2A2 (Homo sapiens, UniProt P19784) | cell-free assay | 98 |
| MAP3K1 (Homo sapiens, UniProt Q13233) | cell-free assay | 98 |
| EPHA8 (Homo sapiens, UniProt P29322) | cell-free assay | 100 |
| NEK7 (Homo sapiens, UniProt Q8TDX7) | cell-free assay | 82 |
| NEK4 (Homo sapiens, UniProt P51957) | cell-free assay | 88 |
| BLK (Homo sapiens, UniProt P51451) | cell-free assay | 73 |
| EGFR (Homo sapiens, UniProt P00533, L858R/T790M) | cell-free assay | 100 |
| CDK11A (Homo sapiens, UniProt Q9UQ88) | cell-free assay | 93 |
| CAMK2D (Homo sapiens, UniProt Q13557) | cell-free assay | 97 |
| EGFR (Homo sapiens, UniProt P00533, T790M) | cell-free assay | 90 |
| Cyclin-dependent kinase 4, with cyclin D3 (CDK4, Homo sapiens, UniProt P11802) | cell-free assay | 98 |
| Receptor-type tyrosine-protein kinase FLT3, autoinhibited (FLT3, Homo sapiens, UniProt P36888) | cell-free assay | 98 |
| Tyrosine-protein kinase ABL1, phosphorylated (ABL1, Homo sapiens, UniProt P00519, Y253F) | cell-free assay | 92 |
| WNK3 (Homo sapiens, UniProt Q9BYP7) | cell-free assay | 94 |
| CLK2 (Homo sapiens, UniProt P49760) | cell-free assay | 100 |
| MAPKAPK5 (Homo sapiens, UniProt Q8IW41) | cell-free assay | 100 |
| CAMKK2 (Homo sapiens, UniProt Q96RR4) | cell-free assay | 100 |
| EGFR (Homo sapiens, UniProt P00533, del746-750) | cell-free assay | 92 |
| HASPIN (Homo sapiens, UniProt Q8TF76) | cell-free assay | 100 |

Sample 4
SMILES: CC(C)n1cnc(-c2ccc(F)cc2)c1-c1ncc(C(=O)Nc2ccc(N3CCN(C)CC3)cc2)[nH]1
Technique: phase 2a trial
Host: idiopathic pulmonary fibrosis patients
| setting | patients with eosinophilia |
| --- | --- |
| 60 mg once daily, adverse event grade 3 | 0% |
| 60 mg once daily, adverse event grade 4 | 0% |
| 30 mg once daily, adverse event grade 2 | 0% |
| dose not given, adverse event grade 3, all dose arms pooled | 0% |
| 30 mg once daily, adverse event grade 5 | 0% |
| dose not given, adverse event grade 2, all dose arms pooled | 0% |
| 30 mg once daily, adverse event grade 4 | 0% |

Some of these lines once more (sample 2):
| Structure (SMILES) | remaining activity |
| --- | --- |
| O=C1NC(=O)c2c1c1c3ccccc3[nH]c1c1[nH]c3cc(Br)ccc3c21 | 96.2% |
| O=C1Nc2ccccc2/C1=C\c1c(Cl)[nH]c2ccccc12 | 99.3% |
| O=C1Cc2c([nH]c3ccc(Br)cc23)-c2ccccc2N1 | 102% |
| O=C1NC(=O)c2c1c1c3ccccc3[nH]c1n1cncc21 | 68.4% |
| Cc1cc(Nc2cc(N3CCN(C)CC3)nc(Sc3ccc(NC(=O)C4CC4)cc3)n2)[nH]n1 | 99.1% |
| O=C(c1cc2cc(O)ccc2[nH]1)c1cc2cc(O)ccc2[nH]1 | 93.1% |
